Published values collected from several papers.
Protocols differ between the studies behind these lines. ± gives the spread as reported.

O=[N+]([O-])c1ccc(N2CCC(NCCC(O)c3ccc(F)c4ccccc34)CC2)c(C(F)(F)F)c1 (centres unmarked)  survival (Salmonella typhimurium; SOS/umu test; TA1535/pSK1002, TGA medium; 0.000488 mg/mL, 4 h, without S9): 112%
CC(C)N(N=O)C(C)C  revertant colonies per plate (Salmonella typhimurium; mutagenicity, Ames plate incorporation; TA1537; 150 µg/plate, without S9, methanol): 12.3 ± 4
O=[N+]([O-])c1ccc(N2CCN(CCC(O)c3ccc(F)cc3)CC2)c(C(F)(F)F)c1 (centres unmarked)  induction factor (Salmonella typhimurium; genotoxicity, SOS/umu test; TA1535/pSK1002; 0.001 mg/mL, 4 h, without S9, lower range): 0.9
CCCN(CCC)CCNC(=O)c1cc(-c2ccc(Br)s2)nc2ccccc12  cytotoxicity efficacy (Vero-E6; CellTiter-Glo ATP; concentration not given, 72 h, retest 8-point duplicates; relative to: DMSO 0%, hyamine -100%, more negative, more toxic): -17.7%
CC(=O)N1CCC(C(=O)N2CCN3C(=O)c4cc(-c5ccccc5)ccc4NC(=O)C3C2)CC1 (centres unmarked)  revertants per plate (Salmonella typhimurium; TA1535; 1581 µg/plate): 17
CNC(=O)c1c(N(C)N=O)ncn1C  revertant colonies per plate (Salmonella typhimurium; mutagenicity, Ames plate incorporation; TA1537; 500 µg/plate, without S9, methanol): 10.3 ± 1
CCCCN(CCCNC(=O)c1cc(Nc2ccc(OC)c(OC)c2)nc2ccccc12)Cc1ccccc1  maximum response (Vero-E6; CellTiter-Glo ATP; 72 h, second round 5-point; relative to: DMSO 0%, hyamine -100%, more negative, more toxic): -5.24%
OC(CCN1CC=C(c2ccc(F)cc2)CC1)c1ccc(F)c2ccccc12 (centres unmarked)  induction factor (Salmonella typhimurium; genotoxicity, SOS/umu test; TA1535/pSK1002; 0.001 mg/mL, 4 h, without S9, lower range): 0.7
N#C[C@@]1(n2ccc(N)nc2=O)O[C@H](CO)[C@@H](O)[C@H]1O  viability (Salmonella typhimurium; TA98; 5 µM, without S9): 97%
COCCN(CCOC)N=O  revertant colonies per plate (Salmonella typhimurium; mutagenicity, Ames plate incorporation; TA1537; 5000 µg/plate, 3 d, without S9, methanol): 7.7 ± 4
Cc1cc(C(=O)NC(C)(C)COc2cccc3c2C(N)=NS(=O)(=O)N3)cc(C)n1  revertant ratio (Salmonella typhimurium; Ames test, initial; TA98; 1500 µg/plate; relative to: solvent control): 1.1
CN(N=O)c1ccc(F)cc1  revertant colonies per plate (Salmonella typhimurium; mutagenicity, Ames plate incorporation; TA1535; 5000 µg/plate, 3 d, without S9, methanol): 13.7 ± 2
COc1cccc(-c2n[nH]c(SCc3ccccn3)n2)c1OC  revertant colonies per plate (Salmonella typhimurium; Ames test, preincubation; TA1535; 0.13 mg/plate, without S9): 15
O=[N+]([O-])c1ccc(NC2CCNCC2)c(C(F)(F)F)c1  induction factor (Salmonella typhimurium; genotoxicity, SOS/umu test; TA1535/pSK1002; 0.125 mg/mL, 4 h, with S9, full range): 0.7

Some of these lines once more:
N#C[C@@]1(n2ccc(N)nc2=O)O[C@H](CO)[C@@H](O)[C@H]1O  viability (Salmonella typhimurium; TA98; 5 µM, without S9): 97%
CCCN(CCC)CCNC(=O)c1cc(-c2ccc(Br)s2)nc2ccccc12  cytotoxicity efficacy (Vero-E6; CellTiter-Glo ATP; concentration not given, 72 h, retest 8-point duplicates; relative to: DMSO 0%, hyamine -100%, more negative, more toxic): -17.7%
